Assay results pooled from the literature.
A part holds a random share of what one study measured. Substitutions count along the parent as printed.

Study 1
Target: CCNB2, cyclin fold, Cln2 fusion (human)
Method: yeast growth competition, sequencing
Medium: yeast
Notes: weak parent motif
Reference: not given
Reading: higher = stronger binding
Parent: INSM1 docking peptide (human); PKAIRKLHFEDEV; partner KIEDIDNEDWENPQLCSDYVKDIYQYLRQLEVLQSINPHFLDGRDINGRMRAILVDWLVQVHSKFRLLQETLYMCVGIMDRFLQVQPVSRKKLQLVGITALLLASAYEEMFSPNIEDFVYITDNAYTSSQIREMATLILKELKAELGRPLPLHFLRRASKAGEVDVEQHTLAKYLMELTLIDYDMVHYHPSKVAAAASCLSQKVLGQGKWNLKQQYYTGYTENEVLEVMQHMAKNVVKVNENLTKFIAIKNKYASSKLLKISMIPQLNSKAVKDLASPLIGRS
Change | normalised enrichment score
A3C | 0.701
L7P | -0.0139
E12F | 0.397
E10W | 0.451
H8N | 0.347
D11P | 0.232
I4F | 0.0672
R5Q | 0.00144
F9T | 0.0543
L7K | 0.144
R5L | -0.0945
R5P | -0.251
I4H | -0.00686
E12W | 0.0579
K2P | 0.00298
E12L | 0.525
A3E | 0.553
E10Y | -0.0925
L7A | 0.532
H8V | 0.234
D11W | 0.156
K6L | 0.0706
A3G | -0.0323
H8T | 0.222
F9A | -0.255

Study 2
Target: RNA binding protein fox-1 homolog 2, RRM domain, GST-SBP tag (RBFOX2, Homo sapiens, UniProt O43251-10, residues 100-194)
Method: RNA Bind-n-Seq
Molecule type: RNA
Medium: in vitro
Concentration: 365 nM
Notes: natural RNA segment, single round, ends assumed
Reference: no-protein control
Reading: higher = stronger binding
Construct (chain): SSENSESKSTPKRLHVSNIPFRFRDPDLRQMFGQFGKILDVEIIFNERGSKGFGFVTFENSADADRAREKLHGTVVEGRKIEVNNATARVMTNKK
Strand | RBNS enrichment (R)
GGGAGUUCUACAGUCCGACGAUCAAGCCCUUUUGGUAAAAACCAACAGGUUGUGGCCGCAGACCUCAGAUGGACCCGGCCCAUCCCUGGGGACGUGCUGGCGUGGCAGGUCCAGAGAGCUGCACCCUGCACGGUGGAAUUCUCGGGUGCCAA | 0.316
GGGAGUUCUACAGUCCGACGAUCUAUCCUCUGUAUUUGUCAUUCCUCUCCUAGCCCUCCUGAGGGGUAUCCUCCUAAAGACCUCCAAAGUUUUUAUGGAAGGGUAAAUACUGGUACCUUCCCCCAGCUUUCCAUGGAAUUCUCGGGUGCCAA | 0.308
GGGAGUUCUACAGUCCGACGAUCGUAUCAUAGUCAUUUAAACCUGGAUAGAUUGUAACCAUUUUCCCUUCACUCUGACACUGUCUUAUUCUGCUGCCACAAUGCAAGCAUAGUUUGUUAUUUUUGUUACUGCCUGGAAUUCUCGGGUGCCAA | 0.548
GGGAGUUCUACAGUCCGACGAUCUUACGAAUUCUGCCAUGCAGCGAUUCUUUAAGGAUAGUUUGUUUUAUUUAUCUUGUACAUAUGUAUUUAGAAAACUUUUAAACUUGAAAAAUAAAUAAUACUUAAUGUUAUGGAAUUCUCGGGUGCCAA | 0.594
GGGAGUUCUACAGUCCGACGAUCUUAAAAUAAAAUUUACUUCCGACGUUUUAAUUACAAAUGUUUGCCACAUUAACUUCUCUGAUGCCUUAAAAGUGGACUUCUUUGAAGAACUUCUGUGCUAUUUUAUCACAUGGAAUUCUCGGGUGCCAA | 0.724
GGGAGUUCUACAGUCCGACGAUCCCCAAGCACACAUGUGUGAAGGGCUAUAGCCAAAGUAUUUUUACUAGCCUGUAUGAAAUCACUAGUCCUUAUUUUUAAAGGUCUAUGGUUUCUUGGAAGUAGUUUGAUUGUGGAAUUCUCGGGUGCCAA | 0.417
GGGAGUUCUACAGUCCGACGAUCGGCUUCUUUCUGUACUUGCUGACUUCUGUCAUAUUUCUUUCCAGAUGUGUUUACAGGUCCCUGUAAGCAGUGUUAGGUCCAUAGGCUUUUAUGACUCCAGUCUGCAAGCAUGGAAUUCUCGGGUGCCAA | 0.436
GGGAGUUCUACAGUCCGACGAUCCCUCACUGAAACACCAGGAUGCCCACUGGAUAUACUAAUCUGAACAUCUGUAGGUAGUUUGUCAUGAAAAAGUGGAGAGAAGAUGAGACUUUUGAAUGAAUGAAAAAGGGUGGAAUUCUCGGGUGCCAA | 2.68

Study 3
Target: RING finger protein unkempt homolog, zinc fingers 1-6, GST-SBP tag (UNK, Homo sapiens, UniProt Q9C0B0, residues 30-357)
Chain of UniProt Q9C0B0 (30-357, looked up): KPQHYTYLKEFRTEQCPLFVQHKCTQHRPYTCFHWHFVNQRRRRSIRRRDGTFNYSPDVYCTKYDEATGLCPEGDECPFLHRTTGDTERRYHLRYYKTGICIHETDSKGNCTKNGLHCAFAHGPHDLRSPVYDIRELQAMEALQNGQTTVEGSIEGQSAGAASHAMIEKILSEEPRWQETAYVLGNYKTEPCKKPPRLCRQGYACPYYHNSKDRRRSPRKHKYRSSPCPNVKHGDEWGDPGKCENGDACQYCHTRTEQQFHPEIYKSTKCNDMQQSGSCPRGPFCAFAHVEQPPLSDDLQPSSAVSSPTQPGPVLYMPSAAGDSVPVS
Method: RNA Bind-n-Seq
Molecule type: RNA
Medium: in vitro
Concentration: not given
Notes: RNA with constant flanks, human and mouse sites, ends assumed
Reference: input RNA pool
Reading: higher = stronger binding
Strand | bound/input enrichment [ratio]
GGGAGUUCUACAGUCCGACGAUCCAUAAUCUGAAGGAUCGCUACUAUUCAGGACUAAUCUAUACUUAUUCUGGACUCUUCUGUGUAGUUAUAAACCCUUACAAGAAUCUUCCAAUUUACUCUGAGAAUAUUAUUGAAAUGUACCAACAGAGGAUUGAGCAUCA | 3.24
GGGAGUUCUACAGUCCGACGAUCAUCUAUACAACCAUCAACGCUCACCAGUGGUCUGAGACGGUCCAGCCAAUUAUGGAAGCACUUAGAGAUGCAACAAGGAGACGCGCCUUUGCCCUGGUCUCUCAAGCGUAUACUUCAAUCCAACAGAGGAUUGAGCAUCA | 0.291
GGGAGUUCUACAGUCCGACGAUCAAUAUCAUUCCUAGUACCUUUUUGCCUAAACAAGAAGGACCUUUUUUCUUGGACUUUAAUAGUAUUAUCCCCAUCAAGAUCACACAACUUCAGUGAUGGAGAAAUCUCAAGUUACUGGCUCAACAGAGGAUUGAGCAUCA | 0.558
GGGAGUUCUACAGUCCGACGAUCAUGCUCAUCAGUGGCUAUGCACUCAACUGUGUGGUGGGAUCCCAGGGCAUGCCCAAGAGAAUCGUAAAUGCAAAAAUUGCUUGCCUUGACUUCAGCCUGCAAAAAACAAAAAUGAAGCUUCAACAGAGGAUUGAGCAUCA | 0.104
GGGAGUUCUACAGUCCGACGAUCUGUACCCAGAUUCUAAGAACCUGGAGAAGGAUUAGCAGUUCUUAGUAAGUUUACUGUGUAUAGGAACGGUUUGUAUUUCAUUACAGCUAUUCAUCUUUUCUACAUUAAAAAUAUUUUUCUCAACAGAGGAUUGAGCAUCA | 3.12
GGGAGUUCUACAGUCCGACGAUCGCUCAAAAAGUGUUUUUCAGACCUCGGUAUUCCUAAUGUGGGAUGUGACUUUAUUUUAUUUUUAGUAGCAAAUUUGGAUGUAGACUGACAGACAUAGCUGAAUGUCUUAAUAAAUUUAAACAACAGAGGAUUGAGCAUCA | 8.65
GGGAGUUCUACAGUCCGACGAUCGUCAACAUUAAGAAACAAAUCAUAUUGUGUAUGGAAGAAUUAGAACACUCUCCAGAUACAAGCUUUGAAAGAGAUGUGGUGUGUGAAGAUGAAAGUGCUUUUUGUUUAUCACUGGAGAACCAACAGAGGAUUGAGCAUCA | 0.284
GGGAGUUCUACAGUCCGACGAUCCUCAUAUUAGUAGCCAAUGCAAUUGUGGGUGUAUGGCAGGAAAGAAAUGCUGAAAAUGCCAUCGAAGCCCUUAAGGAAUAUGAGCCUGAAAUGGGCAAAGUGUAUCGACAGGACAGAAAGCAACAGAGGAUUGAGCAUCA | 0.574

Study 4
Target: Prothrombin, mature alpha-thrombin (F2, Homo sapiens, UniProt P00734)
Method: aptamer microarray, sandwich
Molecule type: DNA with 2'F-ANA
Medium: in vitro
Concentration: 200 nM
Notes: whole 15-mer aptamer, many near background
With: Cy3 exosite-II aptamer, 400 nM
Reading: higher = stronger binding
Strand: GGTTGGTGTGGTTGG
Modification | mean fluorescence intensity
2'F-ANA at 5 6 11 12 | 125 a.u.
2'F-ANA at 2 5 6 7 8 10 12 13 | 48.6 a.u.
2'F-ANA at 3 4 10 11 12 | 361 a.u.
2'F-ANA at 1 4 5 6 7 8 10 11 12 15 | 66.9 a.u.
2'F-ANA at 1 4 6 7 8 10 11 | 67.7 a.u.
2'F-ANA at 2 3 6 7 8 9 13 15 | 572 a.u.
2'F-ANA at 2 3 4 5 6 10 12 14 15 | 49.4 a.u.
2'F-ANA at 3 5 6 11 13 | 91.5 a.u.
2'F-ANA at 6 10 12 14 15 | 113 a.u.
2'F-ANA at 2 6 8 9 12 13 14 | 139 a.u.
2'F-ANA at 2 5 6 8 11 12 13 14 15 | 66 a.u.
2'F-ANA at 1 2 3 5 8 9 10 13 14 | 48.4 a.u.
2'F-ANA at 2 4 5 9 11 12 13 14 15 | 48.3 a.u.
2'F-ANA at 3 4 7 8 9 10 12 13 14 | 206 a.u.
2'F-ANA at 2 4 5 6 8 9 10 13 | 46.3 a.u.
2'F-ANA at 1 3 4 5 8 9 12 15 | 137 a.u.
2'F-ANA at 1 2 4 7 8 9 10 12 13 15 | 81.1 a.u.
2'F-ANA at 2 3 4 5 6 7 9 11 12 14 | 48.8 a.u.
2'F-ANA at 6 7 8 10 12 13 15 | 189 a.u.
2'F-ANA at 4 5 6 8 10 13 14 | 46.1 a.u.
